Results gathered from unrelated publications.
Numbered parts are unrelated; each lists some results of a single study. Positions count from the first letter of the parent shown.

Sample 1
Target: tungstate, free oxyanion
Method: microfluidic competitive inhibition
Medium: in vitro, cell-free expressed
Tested at: not given
Setting: derived from inhibition constants, unchanged parent 2230 nM
Direction: lower = stronger binding
Starting sequence: PafA, mature enzyme, eGFP fusion (Elizabethkingia meningoseptica, UniProt Q9KJX5); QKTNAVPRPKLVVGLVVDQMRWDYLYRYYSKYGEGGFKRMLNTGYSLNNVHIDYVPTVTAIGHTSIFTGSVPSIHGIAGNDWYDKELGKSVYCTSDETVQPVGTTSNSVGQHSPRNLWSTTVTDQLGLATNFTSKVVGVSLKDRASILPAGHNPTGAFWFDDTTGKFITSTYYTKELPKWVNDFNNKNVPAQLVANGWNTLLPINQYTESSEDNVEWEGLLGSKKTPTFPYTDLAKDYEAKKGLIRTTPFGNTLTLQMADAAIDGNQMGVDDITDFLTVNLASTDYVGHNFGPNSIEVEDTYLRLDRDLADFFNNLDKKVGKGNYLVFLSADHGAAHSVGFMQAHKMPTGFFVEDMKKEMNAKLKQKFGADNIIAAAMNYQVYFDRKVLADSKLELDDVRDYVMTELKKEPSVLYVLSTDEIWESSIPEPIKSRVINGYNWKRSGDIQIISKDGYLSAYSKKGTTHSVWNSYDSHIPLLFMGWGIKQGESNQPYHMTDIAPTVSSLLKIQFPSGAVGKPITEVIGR
`A262G`: “oxyanion analog dissociation constant” 1.83 µM.
`D311G`: “oxyanion analog dissociation constant” 2.05 µM.
For `V122A`, “oxyanion analog dissociation constant” read 2.27 µM.
`G288V`: “oxyanion analog dissociation constant” 3.17 µM.
For `I77V`, “oxyanion analog dissociation constant” read 2.06 µM.
`V17A` — result for “oxyanion analog dissociation constant”: 2.32 µM.
`S95G` — result for “oxyanion analog dissociation constant”: 2.15 µM.
Under “oxyanion analog dissociation constant”, `A157V` is recorded as 2.07 µM.

Sample 2
Target: UDP-N-acetylglucosamine--peptide N-acetylglucosaminyltransferase 110 kDa subunit (OGT, Homo sapiens, UniProt O15294)
Effect on: binding
Method: phage display NGS
Form: peptide
Tested at: concentration not given
Setting: normalized abundance
Reference: input library
Target sequence (O15294 1-1046): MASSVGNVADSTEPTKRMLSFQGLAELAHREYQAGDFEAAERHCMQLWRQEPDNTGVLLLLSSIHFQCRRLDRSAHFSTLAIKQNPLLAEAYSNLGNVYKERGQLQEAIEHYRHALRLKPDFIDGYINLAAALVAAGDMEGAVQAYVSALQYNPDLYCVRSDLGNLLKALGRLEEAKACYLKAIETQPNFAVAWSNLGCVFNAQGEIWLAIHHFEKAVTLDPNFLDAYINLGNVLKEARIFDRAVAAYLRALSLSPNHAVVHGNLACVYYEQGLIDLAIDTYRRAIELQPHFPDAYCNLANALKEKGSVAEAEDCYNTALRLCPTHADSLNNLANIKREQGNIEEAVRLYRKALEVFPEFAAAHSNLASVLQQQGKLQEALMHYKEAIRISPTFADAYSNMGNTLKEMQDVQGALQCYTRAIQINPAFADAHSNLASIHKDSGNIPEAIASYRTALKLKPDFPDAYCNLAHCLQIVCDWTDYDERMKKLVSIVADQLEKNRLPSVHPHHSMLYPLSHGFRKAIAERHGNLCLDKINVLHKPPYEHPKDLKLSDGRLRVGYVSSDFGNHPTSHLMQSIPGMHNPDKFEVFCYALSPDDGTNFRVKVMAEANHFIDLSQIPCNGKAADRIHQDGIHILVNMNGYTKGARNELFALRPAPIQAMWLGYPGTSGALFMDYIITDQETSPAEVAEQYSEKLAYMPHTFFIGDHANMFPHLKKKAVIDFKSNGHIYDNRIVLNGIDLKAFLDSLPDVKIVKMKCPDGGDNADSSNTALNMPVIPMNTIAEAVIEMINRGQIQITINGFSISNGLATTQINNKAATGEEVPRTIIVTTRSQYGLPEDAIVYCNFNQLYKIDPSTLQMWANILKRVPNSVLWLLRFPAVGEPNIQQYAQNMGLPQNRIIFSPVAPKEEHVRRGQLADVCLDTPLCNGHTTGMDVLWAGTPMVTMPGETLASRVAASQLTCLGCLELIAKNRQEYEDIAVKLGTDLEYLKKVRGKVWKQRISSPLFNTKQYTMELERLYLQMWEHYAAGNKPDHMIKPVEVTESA
For `HYMSHPIHLFKGHHN`, “enrichment fold change” read 4.26.
Under “enrichment fold change”, `NYPVHNHDFFEHHHI` is recorded as 64.7.
Under “enrichment fold change”, `VTPMHDHFHHINMSV` is recorded as 7.37.
Under “enrichment fold change”, `TSATSYLPYYTIYPG` is recorded as 9.09.
Under “enrichment fold change”, `VPYKHWHVHRGDDHF` is recorded as 6.35.
Under “enrichment fold change”, `NFLPFYAIQTFNNAT` is recorded as 4.78.
`VLQPYLPEYQIYPNY`: “enrichment fold change” 6.38.
`TPFLPMYQIPMDVHN` — result for “enrichment fold change”: 15.9.

Sample 3
Target: CCNB3, cyclin fold, Cln2 fusion (human)
Method: yeast growth competition, sequencing
Medium: yeast
Setting: strong parent motif
Reference: not given
Direction: higher = stronger binding
Starting sequence: viral docking peptide; KGVKRKLFAEDSS; partner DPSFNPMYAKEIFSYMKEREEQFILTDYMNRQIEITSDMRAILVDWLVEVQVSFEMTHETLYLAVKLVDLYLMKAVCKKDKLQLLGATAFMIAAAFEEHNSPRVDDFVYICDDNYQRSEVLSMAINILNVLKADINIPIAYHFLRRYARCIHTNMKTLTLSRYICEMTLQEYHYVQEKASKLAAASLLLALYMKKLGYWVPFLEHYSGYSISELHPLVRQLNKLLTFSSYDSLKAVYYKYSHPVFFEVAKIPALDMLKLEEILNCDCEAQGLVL
Under “normalised enrichment score”, `KGVKRKDFAEDSS [L7D]` is recorded as 0.107.
`KGVKRKPFAEDSS [L7P]`: “normalised enrichment score” 0.0878.
Under “normalised enrichment score”, `KGVKRKLFQEDSS [A9Q]` is recorded as 3.47.
`KGVKDKLFAEDSS [R5D]`: “normalised enrichment score” -0.0493.
`KGVKRKLFAECSS [D11C]`: “normalised enrichment score” 2.27.
`KGVKRKLFALDSS [E10L]` — result for “normalised enrichment score”: 1.68.
For `KGVKRKLFAEDFS [S12F]`, “normalised enrichment score” read 2.83.
`KGVKGKLFAEDSS [R5G]`: “normalised enrichment score” -0.552.

Other studies, line by line
For `N=C(N)NN`, the viability was 107% (A-375; 100 µM, 18 h).
